Measured values of several laboratories.
Every numbered part comes from another study and shows a few of its results, in no order. Changes are numbered by the printed parent chain.

Sample 1 — technique: protein-binding microarray; form: double-stranded DNA, one strand shown; medium: in vitro; tested at: 250 nM; notes: 60-bp whole probe; together with: salmon DNA 0.4 mg/ml; relative to: random background probes; reading: higher = stronger binding; shared flanks, not repeated: GCCTAGCAC … GTCTTGATTCGCTTGACGCTGCTG
Target: Interferon regulatory factor 5, full length, phosphomimetic (IRF5, Homo sapiens, UniProt Q13568-2, residues 1-514, K96S/S451D/S453D/S456D/S462D)
Oligonucleotide | log fluorescence
GACGAACTGAGACTGGAGCCGTGCTAG | -0.379 z-score
TCATTTATATGCTATGTAACTGTGCTA | 0.753 z-score
GACGATTTCAGTTTCCAGACGTGCTAG | 1.69 z-score
TCAGCTTTCCTTTGCTTACTGTGCTAG | 0.861 z-score
TTAGGTATACTTCTCCTTTAGTGCTAG | 0.128 z-score
TTAGGTTCCGGGTATCGGTTAGTGCTA | 4.07 z-score
TTAGGTATCGGTATCTGTTAGTGCTAG | 7.66 z-score
TTAGATGTCGGGTTTCGATTAGTGCTA | 6.22 z-score
TTCTGAATGCCCTCTAACTTCGTGCTA | 0.413 z-score
CACAGTTTGTAAATCTTTTTGTGCTAG | 0.602 z-score
TCATCTATTGCTTTCTCACTGTGCTAG | 1.24 z-score

Sample 2 — technique: aptamer microarray, sandwich; form: DNA with 2'F-ANA; medium: in vitro; tested at: 200 nM; together with: Cy3 exosite-II aptamer, 400 nM; reading: higher = stronger binding; oligonucleotide: GGTTGGTGTGGTTGG
Target: Prothrombin, mature alpha-thrombin (F2, Homo sapiens, UniProt P00734)
Notes: whole 15-mer aptamer, many near background
Modification | mean fluorescence intensity [a.u.]
2'F-ANA at 1 2 4 6 7 8 11 12 14 15 | 79.2
2'F-ANA at 1 3 5 8 9 11 13 15 | 53.9
2'F-ANA at 1 2 4 9 | 137
2'F-ANA at 1 5 7 10 12 15 | 68.3
2'F-ANA at 1 2 4 5 9 12 | 126
2'F-ANA at 1 2 3 4 7 8 9 12 14 15 | 80.5
2'F-ANA at 2 3 5 7 8 9 11 13 14 | 51.8
2'F-ANA at 6 8 12 13 14 | 224
2'F-ANA at 3 10 12 13 14 15 | 408
2'F-ANA at 1 2 3 4 5 6 8 9 10 11 12 13 | 48.9
2'F-ANA at 3 5 6 8 9 15 | 109
2'F-ANA at 5 7 8 9 10 11 12 13 14 | 49.5

Sample 3 — target: CCNB3, cyclin fold, Cln2 fusion (human); technique: yeast growth competition, sequencing; medium: yeast; notes: weak parent motif; relative to: not given; reading: higher = stronger binding
Starting sequence: PKN2 docking peptide (human); VSAVQKLDFSDTM
Change | normalised enrichment score
S2M | 0.264
S10F | 0.0733
S2Q | 0.325
F9R | 0.414
K6F | -0.0726
D8E | 0.38
D11A | 0.288
K6M | 0.211
S10K | 0.269

Mixed results
Substance | target | assay | system | setting | scale | quantity | value
PhoQ, residues 284 288 289 292 302 303 SLANKL | PhoP, residues 12 14 15 18 19 SMASL (Escherichia coli, UniProt P23836) | Sort-seq, refers to: YFP reporter | E. coli | PhoQ-PhoP variant library, together with: 10 µM Mg2+ | relative to: high Mg2+ state, higher = stronger signaling | fold induction | 2.24

For quick reference, copied from above (sample 1):
Oligonucleotide | log fluorescence
TTAGATGTCGGGTTTCGATTAGTGCTA | 6.22 z-score
TCATTTATATGCTATGTAACTGTGCTA | 0.753 z-score
TTAGGTATCGGTATCTGTTAGTGCTAG | 7.66 z-score
